Published values from different studies.
Every numbered part comes from another study and shows a few of its results, in no order. Changes are numbered by the printed parent chain.

Block 1 — target: CCND2, cyclin fold, Cln2 fusion (human); technique: yeast growth competition, sequencing; sample: yeast; notes: weak parent motif; reference: not given; direction: higher = stronger binding; endpoint: normalised enrichment score
Starting sequence: WEE1 docking peptide (human); HKTFRKLRLFDTP; partner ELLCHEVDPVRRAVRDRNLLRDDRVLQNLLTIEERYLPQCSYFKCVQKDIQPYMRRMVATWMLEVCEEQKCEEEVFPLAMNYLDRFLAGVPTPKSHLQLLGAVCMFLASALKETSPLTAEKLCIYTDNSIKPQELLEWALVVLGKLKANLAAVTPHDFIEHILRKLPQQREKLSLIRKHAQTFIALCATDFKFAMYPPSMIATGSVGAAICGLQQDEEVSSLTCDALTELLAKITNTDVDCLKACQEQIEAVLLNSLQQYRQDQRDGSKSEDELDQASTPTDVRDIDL
H1N: 0.25
K2F: -0.437
R5N: -3.46
L9E: 0.0696
K2L: 0.146
T12I: 0.403
L9A: 0.688
H1F: -0.719
K6D: 0.669
K6C: 0.146

Block 2 — technique: DHFR PCA, deep sequencing; sample: yeast; with: (+)-ABA 200 µM; reference: wild-type fitted maximum; direction: higher = stronger binding; endpoint: relative binding score
Target: ABI1, truncated, D143A, DHFR fusion (Arabidopsis thaliana)
Notes: methotrexate growth selection, single substitutions
Starting sequence: PYL1, truncated, DHFR fusion (Arabidopsis thaliana); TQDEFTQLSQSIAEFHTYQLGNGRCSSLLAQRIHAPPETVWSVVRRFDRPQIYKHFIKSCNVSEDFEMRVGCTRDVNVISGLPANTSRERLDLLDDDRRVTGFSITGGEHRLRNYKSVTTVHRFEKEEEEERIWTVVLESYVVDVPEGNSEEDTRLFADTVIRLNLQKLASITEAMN
I133Q: 102%
R88I: 109%
N165F: 9.03%
R111L: 82.1%
G148H: 82.2%
I57H: 38.9%
G148V: 50.6%

Block 3 — technique: protein-binding microarray; form: double-stranded DNA, one strand shown; sample: in vitro; tested at: not given; direction: higher = stronger binding; endpoint: E-score
Target: Protein max, full length (MAX, Homo sapiens, UniProt P61244-2, residues 1-151)
Notes: k-mer, scored over probes, only values ≥0.25
CGTGCGAG: 0.377
TGCGGACA: 0.254
CACATTGC: 0.384
CGGGGAAC: 0.258
AAACATGT: 0.351
CAGCATGA: 0.412
GCGTTTCC: 0.255
GCACGCGC: 0.438
CGTGGATC: 0.309
GACACGCA: 0.302
CATGCTAG: 0.361

Other studies, line by line
PhoQ, residues 284 288 289 292 302 303 SIHMAM  fold induction (PhoP, residues 12 14 15 18 19 GHCSL (Escherichia coli, UniProt P23836); Sort-seq, refers to: YFP reporter; E. coli; PhoQ-PhoP variant library, with: 10 µM Mg2+; reference: high Mg2+ state, higher = stronger signaling): 12.1
